Results of several laboratories.
Each line is one published result; not all experiments were run side by side. Values joined by “and” are separate records of one study, mostly repeats; a detail may differ. ± marks the error that the study gave.
Chain of UniProt P21333 (whole entry, looked up): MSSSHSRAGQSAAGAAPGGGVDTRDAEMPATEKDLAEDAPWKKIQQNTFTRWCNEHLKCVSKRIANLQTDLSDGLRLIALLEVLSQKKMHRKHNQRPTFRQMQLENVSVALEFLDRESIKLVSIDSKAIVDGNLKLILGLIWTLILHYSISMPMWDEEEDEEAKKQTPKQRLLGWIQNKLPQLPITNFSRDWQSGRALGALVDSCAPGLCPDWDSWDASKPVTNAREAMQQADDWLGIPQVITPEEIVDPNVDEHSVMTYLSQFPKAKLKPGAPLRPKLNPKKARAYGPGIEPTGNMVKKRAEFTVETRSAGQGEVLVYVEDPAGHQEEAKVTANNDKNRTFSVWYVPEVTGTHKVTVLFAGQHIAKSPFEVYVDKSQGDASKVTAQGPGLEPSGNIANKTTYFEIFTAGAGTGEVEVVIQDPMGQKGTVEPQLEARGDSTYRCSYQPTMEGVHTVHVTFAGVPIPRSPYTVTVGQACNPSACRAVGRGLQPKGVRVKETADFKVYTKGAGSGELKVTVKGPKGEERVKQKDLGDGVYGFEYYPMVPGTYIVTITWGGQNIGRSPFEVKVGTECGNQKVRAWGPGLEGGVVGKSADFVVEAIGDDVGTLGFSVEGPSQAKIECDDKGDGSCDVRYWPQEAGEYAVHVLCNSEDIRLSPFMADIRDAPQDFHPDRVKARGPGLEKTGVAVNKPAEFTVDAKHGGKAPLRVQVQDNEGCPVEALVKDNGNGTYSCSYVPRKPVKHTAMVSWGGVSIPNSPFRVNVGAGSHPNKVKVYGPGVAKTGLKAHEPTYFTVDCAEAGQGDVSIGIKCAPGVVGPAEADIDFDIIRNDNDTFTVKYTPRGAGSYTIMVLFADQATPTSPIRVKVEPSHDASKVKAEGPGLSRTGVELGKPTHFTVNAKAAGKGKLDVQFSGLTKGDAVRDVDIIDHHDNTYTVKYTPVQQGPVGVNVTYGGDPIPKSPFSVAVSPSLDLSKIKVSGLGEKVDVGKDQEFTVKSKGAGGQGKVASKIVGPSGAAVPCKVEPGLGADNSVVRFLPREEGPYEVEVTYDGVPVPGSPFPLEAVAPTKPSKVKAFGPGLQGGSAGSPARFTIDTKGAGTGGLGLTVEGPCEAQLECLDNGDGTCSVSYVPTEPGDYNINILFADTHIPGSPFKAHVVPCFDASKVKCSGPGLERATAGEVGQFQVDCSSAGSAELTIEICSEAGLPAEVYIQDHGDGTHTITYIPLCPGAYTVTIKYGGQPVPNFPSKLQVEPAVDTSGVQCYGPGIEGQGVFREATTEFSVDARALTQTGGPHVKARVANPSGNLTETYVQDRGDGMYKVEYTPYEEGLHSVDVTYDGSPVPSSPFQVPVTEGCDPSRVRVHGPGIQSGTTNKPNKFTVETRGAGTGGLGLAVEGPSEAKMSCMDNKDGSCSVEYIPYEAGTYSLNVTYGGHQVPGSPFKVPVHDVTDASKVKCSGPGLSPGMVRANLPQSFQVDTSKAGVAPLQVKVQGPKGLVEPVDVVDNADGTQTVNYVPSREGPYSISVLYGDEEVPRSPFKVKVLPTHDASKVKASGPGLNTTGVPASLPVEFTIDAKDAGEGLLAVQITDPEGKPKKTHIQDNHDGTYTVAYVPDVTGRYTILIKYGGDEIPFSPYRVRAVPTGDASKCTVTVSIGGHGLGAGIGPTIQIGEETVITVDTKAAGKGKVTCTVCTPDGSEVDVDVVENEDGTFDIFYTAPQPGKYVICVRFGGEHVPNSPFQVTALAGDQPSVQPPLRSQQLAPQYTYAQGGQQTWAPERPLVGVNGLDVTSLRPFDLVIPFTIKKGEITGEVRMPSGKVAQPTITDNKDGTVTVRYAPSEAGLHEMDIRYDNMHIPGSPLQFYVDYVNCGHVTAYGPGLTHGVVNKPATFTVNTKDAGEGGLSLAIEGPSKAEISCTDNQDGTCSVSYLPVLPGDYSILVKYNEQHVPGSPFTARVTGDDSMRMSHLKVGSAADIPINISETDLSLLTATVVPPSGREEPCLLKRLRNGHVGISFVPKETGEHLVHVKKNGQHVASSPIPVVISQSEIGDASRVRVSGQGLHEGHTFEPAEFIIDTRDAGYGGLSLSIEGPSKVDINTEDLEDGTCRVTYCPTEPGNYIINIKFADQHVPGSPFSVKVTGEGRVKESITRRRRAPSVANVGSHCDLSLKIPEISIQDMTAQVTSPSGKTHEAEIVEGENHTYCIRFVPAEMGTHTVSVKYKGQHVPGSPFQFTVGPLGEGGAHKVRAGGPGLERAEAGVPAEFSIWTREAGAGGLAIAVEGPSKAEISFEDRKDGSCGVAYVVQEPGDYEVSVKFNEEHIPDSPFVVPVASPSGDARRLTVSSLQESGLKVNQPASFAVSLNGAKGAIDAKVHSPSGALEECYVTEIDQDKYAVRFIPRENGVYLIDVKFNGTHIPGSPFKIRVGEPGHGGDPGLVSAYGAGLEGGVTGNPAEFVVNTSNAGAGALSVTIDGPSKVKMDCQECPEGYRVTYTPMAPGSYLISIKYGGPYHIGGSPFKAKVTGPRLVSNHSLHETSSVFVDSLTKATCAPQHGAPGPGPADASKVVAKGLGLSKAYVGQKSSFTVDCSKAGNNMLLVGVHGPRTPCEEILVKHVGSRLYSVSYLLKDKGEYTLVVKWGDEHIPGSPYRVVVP

The viability of `C[C@H](NC(=O)[C@H](Cc1ccc(O)cc1)NC(=O)[C@H](CCCNC(=N)N)NC(=O)[C@H](CCCNC(=N)N)NC(=O)[C@H](CCCNC(=N)N)NC(=O)[C@@H](N)CCCNC(=N)N)C(=O)N[C@@H](CCCNC(=N)N)C(=O)N1CCC[C@H]1C(=O)N[C@@H](Cc1ccc(O)cc1)C(=O)N[C@@H](Cc1ccc(O)cc1)C(=O)N[C@@H](CCCNC(=N)N)C(=O)N[C@@H](CCCNC(=N)N)C(=O)N[C@@H](CCCNC(=N)N)C(=O)O` is reported as 98.7 ± 1.22% (DF-1; LDH release; 3 µM, 1 h).
Under “minimum cytotoxic concentration”, `CCCCCc1nc(N)[nH]c(=O)c1Br` is recorded as > 100 µM (HEL human embryonic lung fibroblasts; cell morphology alteration).
The CC50 of `COc1cccc2c(N3CCc4ccccc4C3C)nc(Nc3ccc(F)cc3C)nc12` (centres unmarked) is reported as 19 µM (293T-ACE2; 40 (unit not given)).
The toxic ratio of `Nc1cnn(-c2ccccc2)c(=O)c1Cl` is reported as 1.71 (HEK293-H PPARγ-UAS-bla cells; cell confluency; 24 h, nominal concentration; reference: baseline IC10 over IC10).
With `Oc1ccc(C(c2ccc(O)cc2)(C(F)(F)F)C(F)(F)F)cc1` the necrotic cells was 49.8 ± 8.39% (HepG2 spheroids; annexin V-FITC/PI flow cytometry; 0.01 µM, 96 h).
With `C[C@@H](c1ccc2nccn2c1)n1nnc2ncc(-c3cnn(C)c3)nc21` the mRNA induction was 19% (primary human hepatocytes; measured: CYP2B6; human; concentration not given, 48 h; reference: phenobarbital).
The viability of `N=C(N)NCCC[C@H](NC(=O)[C@H](CCCNC(=N)N)NC(=O)[C@H](CCCNC(=N)N)NC(=O)[C@H](CCC(N)=O)NC(=O)[C@H](CCCNC(=N)N)NC(=O)[C@H](CCCNC(=N)N)NC(=O)[C@H](CCCCN)NC(=O)[C@H](CCCCN)NC(=O)[C@H](CCCNC(=N)N)NC(=O)CNC(=O)[C@@H](N)Cc1ccc(O)cc1)C(=O)O` is reported as 106.1 ± 0.2% (DF-1; 25 µM, 24 h; reference: untreated cells).
`O=c1[nH]c(=O)n([C@H]2C[C@H](O)[C@@H](CO)O2)cc1/C=C/Br`: “minimum cytotoxic concentration” > 250 µM (HEL human embryonic lung fibroblasts; cell morphology alteration).
`C[C@@H]1CN(c2ncc(C(O)CO)cc2Cl)CCN1c1nc2c(-c3cc(F)c(F)c(F)c3)cc(C(F)(F)F)cc2[nH]1` (some centres unmarked) gave a CC50 of > 2.5 µM (293T-ACE2; 40 (unit not given)).
Under viability, `Cc1ccc(/C=C2/CNCC3=C2N=C2SC=C(c4ccc5ccccc5c4)N2C3c2ccc(C)cc2)cc1` (centres unmarked) is recorded as “not toxic” (SH-SY5Y; MTT; 0.2 to 40 µM, 24 h).
With `O=C(O)C(F)(F)C(F)(F)C(F)(F)C(F)(F)F` the LDH release was 29.2 mU/mL and 18.4 mU/mL and 28.2 mU/mL and 27.6 mU/mL (hTERT-RPTEC parental; concentration not given, 96-well plate).
`CC(C)(c1ccc(O)cc1)c1ccc(O)cc1` gave a necrotic cells of 43.3 ± 6.35% (HepG2 spheroids; annexin V-FITC/PI flow cytometry; 1 µM, 96 h).
`COC(=O)[C@@H]1[C@@H](c2ccccc2)[C@]2(c3ccc(OC)cc3)Oc3cc(OC)cc(OC)c3[C@@]23N=C(C)N[C@@]13O` gave a CC50 of 0.0971 µM (transfected HepG2; MTT; 24 h).
`CC[C@H](C)[C@H](NC(=O)[C@H](CCCNC(=N)N)NC(=O)[C@H](Cc1c[nH]c2ccccc12)NC(=O)[C@H](CCCNC(=N)N)NC(=O)[C@H](Cc1c[nH]c2ccccc12)NC(=O)[C@H](Cc1c[nH]c2ccccc12)NC(=O)[C@H](Cc1c[nH]c2ccccc12)NC(=O)[C@H](CCCNC(=N)N)NC(=O)[C@H](Cc1c[nH]c2ccccc12)NC(=O)[C@@H](N)CCCNC(=N)N)C(N)=O` gave an LC50 of 289 µM (HD11 macrophages).
`COc1ccc(/C=C/c2nc(N)[nH]c(=O)c2Br)cc1OC`: “minimum cytotoxic concentration” > 100 µM (HEL human embryonic lung fibroblasts; cell morphology alteration).
`CC[C@H](C)[C@H](NC(=O)[C@@H](N)CC(N)=O)C(=O)N1CCC[C@H]1C(=O)N1CCC[C@H]1C(=O)N[C@@H](CC(C)C)C(=O)N[C@H](C(=O)N[C@@H](CCC(N)=O)C(=O)N[C@H](C(=O)N1CCC[C@H]1C(=O)N[C@H](C(=O)N[C@H](C(=O)N[C@H](C(=O)N1CCC[C@H]1C(=O)N1CCC[C@H]1C(=O)N[C@@H](Cc1ccccc1)C(=O)N[C@@H](CC(C)C)C(=O)N[C@@H](CCC(N)=O)C(=O)N1CCC[C@H]1C(=O)N[C@@H](CCC(=O)O)C(=O)O)C(C)C)C(C)C)C(C)C)[C@@H](C)O)[C@@H](C)O` — result for transport: “no effect” (Caco-2 monolayers; 10 µM, 60 min, added: cytochalasin D 0.5 mg/mL preincubated 30 min; reference: untreated).
Under “LDH activity in medium”, `O=S(=O)(O)C(F)(F)C(F)(F)C(F)(F)C(F)(F)C(F)(F)C(F)(F)C(F)(F)C(F)(F)F` is recorded as 24.7 mU/mL (hTERT-RPTEC parental; LDH release; culture medium; concentration not given, 24 h, 96-well plate).
For `CC[C@@H](C)[C@H]1O[C@@H](c2c(O)c(-c3ccccc3)cn(OC)c2=O)[C@H](C)C[C@@H]1C`, the IC50 was > 10 µg/mL (SK-MEL; cytotoxicity, neutral red uptake; 48 h).
For `CN(C)CCCC1(c2ccc(F)cc2)OCc2cc(C#N)ccc21` (centres unmarked), the IC10 was 52.8 µM (SH-SY5Y; cell viability, propidium iodide staining; 24 h, freely dissolved concentration).
For `CC(C)CC(=O)OC[C@H]1O[C@@](C#N)(c2ccc3c(N)ncnn23)[C@H](O)[C@@H]1O`, the remaining compound was 0.81 ± 0.251% (dog hepatocytes; 5 µM, 15 min).
`C[C@H]1CN(c2n[nH]c3nc(N[C@H]4CC[C@H](NS(=O)(=O)CCC(F)(F)F)CC4)ncc23)CCO1` gave a relative abundance of 1.18 (Filamin-A (Homo sapiens, UniProt P21333); competitor, Kinobeads competition; human cell extract; 20 µM; reference: vehicle).
For `O=[N+]([O-])c1ccc(-c2nn(-c3ccccc3)c3sc(NC(c4ccccc4O)P(=O)(Oc4ccccc4)Oc4ccccc4)nc23)cc1` (centres unmarked), the viability was 94.2% (Vero cells; SRB; 10 µM, 10% fetal bovine serum).
Under “grade 1 or 2 Dizzy”, `COc1cc2c(Oc3ccc4[nH]c(C)cc4c3F)ccnc2cc1OCC1(N)CC1` is recorded as 9.1% (paediatric recurrent refractory sarcoma; 12 mg).
The IC10 of `COc1ccc2c(c1)c(CC(=O)O)c(C)n2C(=O)c1ccc(Cl)cc1` is reported as 40.4 µM (HEK293-H PPARγ-UAS-bla cells; cell confluency, IncuCyte imaging; 24 h, nominal concentration).
`O=c1ccc2ccccc2o1` gave a chance response of 3.07% (NHEK; cell count; concentration not given, 6 h, NRF2 oxidative stress panel).
`COc1cc2c(c(OC)c1OC)-c1ccc(OC)c(=O)cc1[C@@H](NC(C)=O)CC2` — result for “micronuclei per binucleated cell”: 0.074 (CHO-WBL; 0.16 µg/mL, 19 h, without S9).
`CC(C)[C@H](NC(=O)[C@H](CCCNC(=N)N)NC(=O)[C@H](Cc1c[nH]c2ccccc12)NC(=O)[C@H](CCCNC(=N)N)NC(=O)[C@H](Cc1c[nH]c2ccccc12)NC(=O)[C@H](Cc1c[nH]c2ccccc12)NC(=O)[C@H](Cc1c[nH]c2ccccc12)NC(=O)[C@H](CCCNC(=N)N)NC(=O)[C@H](Cc1c[nH]c2ccccc12)NC(=O)[C@@H](N)CCCNC(=N)N)C(N)=O` has an LC50 of > 512 µM (HD11 macrophages).
With `Cc1cc(C(C)(C)c2ccc(O)c(C)c2)ccc1O` the viable cells was 68.2 ± 4.51% (HepG2 spheroids, dissociated; annexin V-FITC/PI flow cytometry; 40 µM, 24 h).
`CC(C)C[C@H](NC(=O)[C@H](CCCNC(=N)N)NC(=O)[C@H](Cc1c[nH]c2ccccc12)NC(=O)[C@H](CCCNC(=N)N)NC(=O)[C@H](Cc1c[nH]c2ccccc12)NC(=O)[C@H](Cc1c[nH]c2ccccc12)NC(=O)[C@H](Cc1c[nH]c2ccccc12)NC(=O)[C@H](CCCNC(=N)N)NC(=O)[C@H](Cc1c[nH]c2ccccc12)NC(=O)[C@@H](N)CCCNC(=N)N)C(N)=O` gave an LC50 of > 512 µM (HD11 macrophages).
The toxic ratio of `CC(C)(Oc1ccc(Cl)cc1)C(=O)O` is reported as 0.33 (HEK293-H PPARγ-UAS-bla cells; cell confluency; 24 h, nominal concentration; reference: baseline IC10 over IC10).
For `O=S(=O)(c1ccc(O)cc1)c1ccc(O)cc1`, the viable cells was 38.8 ± 4.56% (HepG2 spheroids, dissociated; annexin V-FITC/PI flow cytometry; 0.01 µM, 96 h).
With `N#C[C@@]1(n2ccc(N)nc2=O)O[C@H](CO)[C@@H](O)[C@H]1O` the micronucleated cells was 0.09% (CHO; 31 µM, with S9).
With `Oc1ccc(C2(c3ccc(O)cc3)c3ccccc3-c3ccccc32)cc1` the viable cells was 67.4 ± 6.74% (HepG2 spheroids, dissociated; annexin V-FITC/PI flow cytometry; 1 µM, 24 h).
`N=C(N)NCCC[C@H](NC(=O)[C@H](CCCNC(=N)N)NC(=O)[C@H](CCCCN)NC(=O)[C@H](CCCNC(=N)N)NC(=O)[C@H](Cc1ccccc1)NC(=O)[C@H](Cc1ccc(O)cc1)NC(=O)[C@H](CCCNC(=N)N)NC(=O)[C@H](CCCNC(=N)N)NC(=O)[C@H](CCCNC(=N)N)NC(=O)[C@H](CCCNC(=N)N)NC(=O)[C@H](CCCNC(=N)N)NC(=O)[C@H](Cc1ccc(O)cc1)NC(=O)[C@H](CCCNC(=N)N)NC(=O)[C@@H](N)CCCNC(=N)N)C(=O)O` gave a viability of 100.9 ± 0.5% (DF-1; 5 µM, 24 h; reference: untreated cells).
`CNC(=O)Oc1cc(C)c(SC)c(C)c1` has a toxic ratio of 0.49 (SH-SY5Y; 24 h, nominal concentration; reference: baseline IC10 over IC10).
`CC(c1ccccc1)(c1ccc(O)cc1)c1ccc(O)cc1`: “early apoptotic cells” 13.9 ± 8.16% (HepG2 spheroids, dissociated; annexin V-FITC/PI flow cytometry; 10 µM, 24 h).
`CO[C@H]1C[C@@H]2CC[C@@H](C)[C@@](O)(O2)C(=O)C(=O)N2CCCC[C@H]2C(=O)O[C@H]([C@H](C)C[C@@H]2CC[C@@H](OC(=O)NCCOCCOCCOCCOCCOCCOCCOCCOCCC(=O)N3CCc4cc(Cn5nc(-c6ccc7oc(N)nc7c6)c6c(N)ncnc65)ccc4C3)[C@H](OC)C2)C[C@@H](O)[C@H](C)/C=C(\C)[C@@H](O)[C@@H](OC)C(=O)[C@H](C)C[C@H](C)/C=C/C=C/C=C/1C` — result for “AE leading to dose reduction”: 75% (patients with advanced solid tumours; intravenous, 16 mg weekly, any grade).
Under “LDH activity in medium”, `O=C(O)C(F)(F)C(F)(F)C(F)(F)F` is recorded as 24.3 mU/mL (hTERT-RPTEC parental; LDH release; culture medium; concentration not given, 24 h, 96-well plate).
The CC50 of `Fc1ccc(-c2ccc(CN3CCN(c4cccc5ccoc45)CC3)[nH]2)cc1` is reported as 0.17 µM (293T-ACE2; 40 (unit not given)).
The IC10 of `Fc1ccc(Oc2ccnc3cc(Cl)cc(Cl)c23)cc1` is reported as 9.36 µM (HEK293-H PPARγ-UAS-bla cells; cell confluency, IncuCyte imaging; 24 h, nominal concentration).
`O=C(O)C(F)(F)C(F)(F)C(F)(F)C(F)(F)C(F)(F)C(F)(F)C(F)(F)C(F)(F)C(F)(F)C(F)(F)F`: “LDH activity in medium” 24.3 mU/mL (hTERT-RPTEC parental; LDH release; culture medium; concentration not given, 24 h, 96-well plate).
